Assay results gathered from unrelated publications.
Lines come from different studies, so protocols differ. ± gives the spread as reported.

Nc1ncc(-c2cc(-c3cnn(CC(F)(F)F)c3)ncc2F)nc1C(=O)NC1CNCC(F)C1 (stereo not shown)  remaining binding (MINK; KINOMEscan competition binding; 1 µM; reference: DMSO control): 77%
C[n+]1cccc2cc(/C=N/NC(=O)c3cccc(C(=O)N/N=C/c4ccc5c(ccc[n+]5C)c4)c3)ccc21  ΔTm (MYC parallel G4 DNA; FRET melting; 1 µM, DNA 0.2 µM, together with: duplex DNA competitor 10 µM): 4.4 ± 0.3 °C
CNS(=O)(=O)Nc1nccc(Cc2c(C)c3ccc(Oc4ncccc4F)cc3oc2=O)c1F  IC50 (COV434; cell viability; 7 days): > 1 µM
CCc1nnc(NC(=O)c2cccc(C(=O)Nc3nnc(CC)s3)n2)s1  Emax (Mus musculus; gene silencing, high-content imaging; LDR reporter GFP cells; 30 h, retest run 1): 41%
C[n+]1ccc(/C=N/NC(=O)c2cncc(C(=O)N/N=C/c3cc[n+](C)c4ccccc34)n2)c2ccccc21  ΔTm (hp2 hairpin duplex DNA; FRET melting; 1 µM): 0.8 ± 0.1 °C
C=CC(=O)N1[C@@H](c2ccc3c(c2)OCO3)c2[nH]c3ccccc3c2C[C@H]1C(=O)N1CCN(C)CC1  relative co-enrichment (human cyclin E1 wild type-3xFLAG:CDK2; co-IP with TMT proteomics, measured: RPS14; concentration not given, P62263; reference: wild type DMSO): 83%
Cc1ncsc1-c1ccc(C(C)NC(=O)C2CC(O)CN2C(=O)C(NC(=O)CCCCCCCCCCN2CCCC(Nc3ncc(Cl)c(Nc4ccccc4S(=O)(=O)C(C)C)n3)C2)C(C)(C)C)cc1 (stereo not shown)  log2 fold change (22Rv1; RNA-seq, measured: ZIK1 mRNA; concentration not given; reference: DMSO): -1.28
CN1CCCNC(=O)c2cccc(c2)C(=O)NCCCN(C)CCCNc2cccc3c2C(=O)c2cccc(c2C3=O)NCCC1  log2 fold change (SAS; RNA-Seq, measured: CCDC122 mRNA; 1 µM, 6 h; reference: untreated cells): 1.55
O=C(N/N=C/c1ccc2c(ccc[n+]2Cc2ccccc2)c1)N/N=C/c1ccc2c(ccc[n+]2Cc2ccccc2)c1  ΔTm (hp2 hairpin duplex DNA; FRET melting; 1 µM): 2.1 ± 0.4 °C
COC1CN([C@H]2CC[C@H]([C@@]3(C)Oc4c(Cl)cc(C(=O)NCc5c(SC)cc(C)[nH]c5=O)c(C)c4O3)CC2)C1  log2 fold change (RNA-seq, measured: KIF3C mouse homolog; mouse, HT-1376 xenograft, whole blood; dose not given; reference: vehicle): 0.345
C[n+]1ccc(/C=N/NC(=O)c2cccc(C(=O)N/N=C/c3cc[n+](C)cc3)n2)cc1  ΔTm (hp2 hairpin duplex DNA; FRET melting; 1 µM): 0.8 ± 0.5 °C
CCCC(=O)N1CCN(c2ccc(NC(=O)c3ccc([N+](=O)[O-])o3)cc2Cl)CC1  EC50 (Mus musculus; gene silencing, high-content imaging; LDR reporter GFP cells; retest, mean of two runs): 2.51 µM
C=CC(=O)Nc1cccc(Cn2ncc3cnc(Nc4cnn(CCOC)c4)nc32)c1  percent of control (PIP5K1C human; binding, KINOMEscan; 100 nM; lower = stronger binding): 54%
